Measurements pooled from the literature.
Each numbered part is a random draw from the data of one study; scales do not carry over between parts. “And” joins repeats or separate records; there may be more than shown.
Sequence of UniProt P42336 (whole entry, unmodified, looked up): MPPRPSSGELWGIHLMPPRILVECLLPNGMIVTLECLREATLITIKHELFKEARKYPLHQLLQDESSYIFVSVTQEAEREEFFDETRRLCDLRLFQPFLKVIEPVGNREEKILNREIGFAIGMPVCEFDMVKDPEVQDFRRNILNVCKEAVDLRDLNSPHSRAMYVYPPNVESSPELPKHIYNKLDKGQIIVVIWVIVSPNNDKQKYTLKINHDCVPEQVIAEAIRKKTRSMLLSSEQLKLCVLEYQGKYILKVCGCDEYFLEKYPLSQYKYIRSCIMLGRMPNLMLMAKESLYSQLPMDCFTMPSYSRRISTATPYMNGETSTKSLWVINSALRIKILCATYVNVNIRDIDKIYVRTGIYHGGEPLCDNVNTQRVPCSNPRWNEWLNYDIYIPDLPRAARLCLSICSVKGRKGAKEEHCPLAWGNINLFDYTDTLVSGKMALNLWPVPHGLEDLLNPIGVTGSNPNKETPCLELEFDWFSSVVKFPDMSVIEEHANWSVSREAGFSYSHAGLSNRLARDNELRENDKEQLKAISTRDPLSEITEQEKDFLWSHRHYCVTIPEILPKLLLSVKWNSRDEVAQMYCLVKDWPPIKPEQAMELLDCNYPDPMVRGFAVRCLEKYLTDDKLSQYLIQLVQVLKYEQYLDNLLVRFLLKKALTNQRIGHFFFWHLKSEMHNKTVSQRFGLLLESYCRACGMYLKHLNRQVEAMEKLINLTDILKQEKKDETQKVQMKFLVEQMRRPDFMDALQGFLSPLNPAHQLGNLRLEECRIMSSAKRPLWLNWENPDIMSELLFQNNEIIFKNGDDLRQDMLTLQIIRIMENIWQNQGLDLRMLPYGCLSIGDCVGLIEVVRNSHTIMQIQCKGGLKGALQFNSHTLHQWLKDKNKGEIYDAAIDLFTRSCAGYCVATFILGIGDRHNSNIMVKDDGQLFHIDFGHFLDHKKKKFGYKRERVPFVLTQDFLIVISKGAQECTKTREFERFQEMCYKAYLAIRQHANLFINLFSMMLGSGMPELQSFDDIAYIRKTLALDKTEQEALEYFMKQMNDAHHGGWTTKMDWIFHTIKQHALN
Sequence of UniProt Q9UIK4 (whole entry, looked up): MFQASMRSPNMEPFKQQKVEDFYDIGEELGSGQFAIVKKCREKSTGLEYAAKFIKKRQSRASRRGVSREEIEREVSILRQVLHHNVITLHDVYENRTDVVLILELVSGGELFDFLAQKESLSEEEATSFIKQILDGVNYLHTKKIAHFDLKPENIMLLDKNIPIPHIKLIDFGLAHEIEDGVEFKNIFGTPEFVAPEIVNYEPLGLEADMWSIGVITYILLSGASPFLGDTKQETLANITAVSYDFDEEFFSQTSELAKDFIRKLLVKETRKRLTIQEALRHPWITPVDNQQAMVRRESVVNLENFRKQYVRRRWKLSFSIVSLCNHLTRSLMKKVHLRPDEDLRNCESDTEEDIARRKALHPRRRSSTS
Sequence of UniProt P53667 (whole entry, looked up): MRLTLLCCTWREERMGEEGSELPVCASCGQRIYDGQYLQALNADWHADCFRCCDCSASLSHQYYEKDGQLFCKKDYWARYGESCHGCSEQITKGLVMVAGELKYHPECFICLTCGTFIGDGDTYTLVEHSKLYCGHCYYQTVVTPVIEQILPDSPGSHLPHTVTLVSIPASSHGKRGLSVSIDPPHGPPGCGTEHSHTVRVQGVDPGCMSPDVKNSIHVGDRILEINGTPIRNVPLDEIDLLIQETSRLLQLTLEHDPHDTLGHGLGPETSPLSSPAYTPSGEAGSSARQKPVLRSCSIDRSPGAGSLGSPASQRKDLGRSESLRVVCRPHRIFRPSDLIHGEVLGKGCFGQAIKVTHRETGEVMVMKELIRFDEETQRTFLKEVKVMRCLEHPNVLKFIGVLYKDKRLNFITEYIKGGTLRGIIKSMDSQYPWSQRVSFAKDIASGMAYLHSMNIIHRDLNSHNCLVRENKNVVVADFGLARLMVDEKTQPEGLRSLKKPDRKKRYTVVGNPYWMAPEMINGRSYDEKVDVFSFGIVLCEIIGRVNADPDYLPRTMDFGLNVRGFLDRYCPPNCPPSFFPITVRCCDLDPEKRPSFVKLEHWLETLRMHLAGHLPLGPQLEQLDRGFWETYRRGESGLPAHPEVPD
Sequence of UniProt Q9UM73 (whole entry, looked up): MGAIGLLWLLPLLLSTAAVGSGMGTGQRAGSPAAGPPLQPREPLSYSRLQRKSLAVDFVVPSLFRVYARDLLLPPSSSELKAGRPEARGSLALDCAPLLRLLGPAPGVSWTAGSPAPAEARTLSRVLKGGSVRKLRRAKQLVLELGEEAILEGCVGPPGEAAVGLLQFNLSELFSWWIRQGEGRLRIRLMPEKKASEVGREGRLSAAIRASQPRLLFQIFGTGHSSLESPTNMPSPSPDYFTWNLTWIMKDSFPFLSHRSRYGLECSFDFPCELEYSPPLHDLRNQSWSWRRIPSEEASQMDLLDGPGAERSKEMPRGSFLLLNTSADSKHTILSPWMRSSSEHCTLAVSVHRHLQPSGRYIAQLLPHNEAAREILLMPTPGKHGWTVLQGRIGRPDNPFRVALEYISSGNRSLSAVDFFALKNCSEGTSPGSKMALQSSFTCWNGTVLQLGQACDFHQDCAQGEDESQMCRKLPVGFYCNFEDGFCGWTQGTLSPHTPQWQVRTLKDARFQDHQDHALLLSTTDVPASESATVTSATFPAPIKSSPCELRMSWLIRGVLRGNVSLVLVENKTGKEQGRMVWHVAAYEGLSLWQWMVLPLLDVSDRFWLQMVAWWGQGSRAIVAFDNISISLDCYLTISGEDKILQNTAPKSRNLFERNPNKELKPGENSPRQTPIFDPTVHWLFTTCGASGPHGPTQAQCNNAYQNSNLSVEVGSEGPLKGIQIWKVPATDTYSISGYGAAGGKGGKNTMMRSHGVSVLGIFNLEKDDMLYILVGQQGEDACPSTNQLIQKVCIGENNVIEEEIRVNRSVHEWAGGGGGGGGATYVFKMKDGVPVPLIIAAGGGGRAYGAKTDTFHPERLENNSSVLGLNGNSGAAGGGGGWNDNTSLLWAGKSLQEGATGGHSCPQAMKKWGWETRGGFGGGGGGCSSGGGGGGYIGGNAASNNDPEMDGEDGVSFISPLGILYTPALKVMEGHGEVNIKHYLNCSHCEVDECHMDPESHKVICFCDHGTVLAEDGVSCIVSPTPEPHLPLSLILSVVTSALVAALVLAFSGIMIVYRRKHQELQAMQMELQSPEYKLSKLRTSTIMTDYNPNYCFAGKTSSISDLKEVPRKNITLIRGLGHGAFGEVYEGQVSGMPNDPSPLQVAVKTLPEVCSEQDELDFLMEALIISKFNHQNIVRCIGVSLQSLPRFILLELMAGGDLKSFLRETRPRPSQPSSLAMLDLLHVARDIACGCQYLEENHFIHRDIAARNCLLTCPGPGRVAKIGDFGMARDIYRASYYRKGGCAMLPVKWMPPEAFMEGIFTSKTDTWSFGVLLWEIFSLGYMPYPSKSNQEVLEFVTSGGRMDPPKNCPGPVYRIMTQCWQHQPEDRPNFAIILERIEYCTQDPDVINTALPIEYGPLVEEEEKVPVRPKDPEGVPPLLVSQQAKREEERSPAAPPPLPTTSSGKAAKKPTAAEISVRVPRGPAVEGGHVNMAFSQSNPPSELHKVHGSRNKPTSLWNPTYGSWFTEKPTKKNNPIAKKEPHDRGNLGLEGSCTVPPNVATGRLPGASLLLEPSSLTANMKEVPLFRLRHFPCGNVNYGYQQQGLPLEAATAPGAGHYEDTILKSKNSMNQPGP
Sequence of UniProt P23458 (whole entry, looked up): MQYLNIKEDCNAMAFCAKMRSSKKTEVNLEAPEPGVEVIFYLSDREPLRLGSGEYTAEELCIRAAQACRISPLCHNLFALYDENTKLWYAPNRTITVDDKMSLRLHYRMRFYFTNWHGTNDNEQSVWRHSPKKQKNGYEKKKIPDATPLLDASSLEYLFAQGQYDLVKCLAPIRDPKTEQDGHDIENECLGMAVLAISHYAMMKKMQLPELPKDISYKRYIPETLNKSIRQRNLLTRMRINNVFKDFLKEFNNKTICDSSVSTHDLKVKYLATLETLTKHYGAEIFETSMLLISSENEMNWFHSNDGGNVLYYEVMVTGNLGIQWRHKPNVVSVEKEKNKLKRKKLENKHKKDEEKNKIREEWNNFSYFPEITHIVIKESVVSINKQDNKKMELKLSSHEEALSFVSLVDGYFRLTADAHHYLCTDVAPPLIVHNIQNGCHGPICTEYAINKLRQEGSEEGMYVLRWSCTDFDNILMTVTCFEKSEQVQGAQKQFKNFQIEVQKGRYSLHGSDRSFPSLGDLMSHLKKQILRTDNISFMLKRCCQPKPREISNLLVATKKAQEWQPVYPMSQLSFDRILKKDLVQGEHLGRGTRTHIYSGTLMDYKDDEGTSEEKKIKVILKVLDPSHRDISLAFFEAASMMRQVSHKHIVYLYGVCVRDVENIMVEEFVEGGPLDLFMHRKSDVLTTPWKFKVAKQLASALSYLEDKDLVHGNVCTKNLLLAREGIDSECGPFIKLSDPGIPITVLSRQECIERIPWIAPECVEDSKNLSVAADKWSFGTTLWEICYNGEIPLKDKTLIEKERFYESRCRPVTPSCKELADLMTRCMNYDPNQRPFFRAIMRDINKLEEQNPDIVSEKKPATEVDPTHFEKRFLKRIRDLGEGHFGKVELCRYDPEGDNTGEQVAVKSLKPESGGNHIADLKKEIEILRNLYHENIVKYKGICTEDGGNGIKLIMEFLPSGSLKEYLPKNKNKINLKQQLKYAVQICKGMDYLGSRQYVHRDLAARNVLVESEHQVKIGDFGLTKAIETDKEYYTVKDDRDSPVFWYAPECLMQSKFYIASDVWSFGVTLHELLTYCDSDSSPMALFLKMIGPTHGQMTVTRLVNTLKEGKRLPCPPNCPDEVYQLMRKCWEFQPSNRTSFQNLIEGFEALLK

Series 1
Organism: Sarcocystis neurona
Read-out: parasite growth
Concentration: 10 µM
Notes: secondary screen
| SMILES | inhibition |
| --- | --- |
| CCCCNc1cc(C(=O)O)cc(S(N)(=O)=O)c1Oc1ccccc1 | -26.9% |
| Cc1cccc(CN2CCN(C(c3ccccc3)c3ccc(Cl)cc3)CC2)c1.Cl.Cl (centres unmarked) | -52.2% |
| C[C@H]1COc2c(N3CCN(C)CC3)c(F)cc3c(=O)c(C(=O)O)cn1c23 | -8.4% |
| CN(CCO)CC(O)Cn1cnc2c1c(=O)n(C)c(=O)n2C.O=C(O)c1cccnc1 (centres unmarked) | -30.5% |

Series 2
Cell line: HaCaT
Concentration: 100 µM
Time: 36 h
| Compound | viability [%] |
| --- | --- |
| CC(C)[C@H](N)C(=O)OCC(CO)OCn1cnc2c(=O)nc(N)[nH]c21 (some centres unmarked) | 99.9 |
| C[N+](C)(C)CCOP(=O)(O)OP(=O)([O-])OC[C@H]1O[C@@H](n2ccc(N)nc2=O)[C@H](O)[C@@H]1O | 82.1 |
| NCC[C@H](O)C(=O)N[C@@H]1C[C@H](N)[C@@H](O[C@H]2O[C@H](CN)[C@@H](O)[C@H](O)[C@H]2O)[C@H](O)[C@H]1O[C@H]1O[C@H](CO)[C@@H](O)[C@H](N)[C@H]1O | 98.1 |
| CCC1=C(C)CN(C(=O)NCCc2ccc(S(=O)(=O)NC(=O)N[C@H]3CC[C@H](C)CC3)cc2)C1=O | 91.2 |

Series 3
Structure (SMILES): CC(=O)N[C@@H](Cc1c[nH]c2ccccc12)C(=O)N[C@@H](CCC(=O)C=[N+]=[N-])C(=O)OC(C)C
Species: mouse, EL4 tumour-bearing
Sample: EL4 tumour
Dose: dose not given
Reference: vehicle
| measured | log2 fold change |
| --- | --- |
| orotidine | 0.751 |
| S-methylcysteine | -0.684 |
| triethanolamine | 0.231 |

Series 4
Target: RNA binding protein fox-1 homolog 2, RRM domain, GST-SBP tag (RBFOX2, Homo sapiens, UniProt O43251-10, residues 100-194)
Technique: RNA Bind-n-Seq
Molecule type: RNA
Sample: in vitro
Concentration: 365 nM
Notes: natural RNA segment, single round, ends assumed
Reference: no-protein control
Reading: higher = stronger binding
Constant ends, left off below: GGGAGUUCUACAGUCCGACGAUC … UGGAAUUCUCGGGUGCCAA
Construct (chain): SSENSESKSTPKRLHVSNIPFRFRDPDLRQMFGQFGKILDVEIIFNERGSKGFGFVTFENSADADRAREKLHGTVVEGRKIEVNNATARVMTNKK
| Sequence | RBNS enrichment (R) |
| --- | --- |
| GGCUGGAACAGCAGAUUUCAGCUACAUAUAUGAACAAAUCCUUUAUUAUUAUUAUAAUUAUUUUUUUGCGUGAAAGUGUUACAUAUUCUUUCACUUGUAUGUACAGAGAG | 0.688 |
| UAUCUAGAUACUGCAGUCAGGUUUGGAAGCUGCCGUACACUCACUGUCUAAAACCCUUGAGGGGCUGUAUUAAUUUGUAUCGCCCCAUGGCUGUGAAAUGCCUUUUUUUU | 0.325 |
| CAGAGAUUUGGGGGCUUCAUUAACAGGGACUAGCAGGGUGUUUUUCAAACCAUCCCGGUGGCUGGGAUGCAAGCUCAAGUUUGAGAACCACUGGUUUUGUCCUGGUGUUU | 0.615 |
| CCGGUGAGCCUGGGGCUGUUGCUUAGGGUCUUCUGGGUGGACACGUGGAGAAAGAGAAGGCAAACGUUGGAACACUAGGAAAAGCUAGAAAUUCAGACAACACACAUGGA | 0.381 |
| UCAUGUACAGUUUCCAGAAUUGUCACUGUGCAUUCAAAAGUAAUGAAUCUAACAGACAUUUGAUUUAAUGUACACUCCCUUUUGCUUAUAGUGUGCAUUUUUUUUGGAGG | 0.573 |
| AUGUAAGACAUUUGAUCCCCUGUUGACUUACAAAAUUGUAAAUGGUAAAGCAGGCUAGAGUCUUAACCAUGGUGCUAUUCACUGGGUUUACUUGUUUAACACAAGUUUAU | 0.389 |
| CCUUAUGAAACUCCAGCUAUGUAAUAAAAAACUAUACUCUGUGUUCUGUUAAUGCCUCUGAGUGUCCUACCUCCUUGGAGAUGAGAUAGGGAAGGAGCAGGGAUGAGACU | 1.01 |
| CCAGCCUAAAUGACAGGUCCUCUGAAAAAGAGGUGCUGAGGAGUAAUGGGGCCAGCUGAUUAAAGAAAAAGAACCCCCACACAACAGGACUGUCAGGACAGAUUGAGUUA | 0.861 |

Series 5
Compound: CC1=C(C#N)C(c2ccc3c(c2)c(NC(=O)c2ccccc2C)nn3C)C(C#N)=C(C)N1
Concentration: 1 µM
| target | read-out | technique | remaining binding [%] |
| --- | --- | --- | --- |
| Ribosomal protein S6 kinase alpha-5, C-terminal kinase domain (RPS6KA5, Homo sapiens, UniProt O75582) | cell-free assay | competition with immobilised ligand | 87 |
| Beta-adrenergic receptor kinase 1 (GRK2, Homo sapiens, UniProt P25098) | cell-free assay | competition with immobilised ligand | 91 |
| Phosphatidylinositol 4,5-bisphosphate 3-kinase catalytic subunit alpha isoform (PIK3CA, Homo sapiens, UniProt P42336, E545K) | cell-free assay | competition with immobilised ligand | 90 |
| Mitogen-activated protein kinase 4 (MAPK4, Homo sapiens, UniProt P31152) | cell-free assay | competition with immobilised ligand | 100 |
| Death-associated protein kinase 2 (DAPK2, Homo sapiens, UniProt Q9UIK4) | cell-free assay | competition with immobilised ligand | 98 |
| Epidermal growth factor receptor (EGFR, Homo sapiens, UniProt P00533, G719C) | cell-free assay | competition with immobilised ligand | 83 |
| Tyrosine-protein kinase ABL1, phosphorylated (ABL1, Homo sapiens, UniProt P00519, F317I) | binding |  | 78 |
| Glycogen synthase kinase-3 alpha (GSK3A, Homo sapiens, UniProt P49840) | cell-free assay | competition with immobilised ligand | 100 |
| ALK tyrosine kinase receptor (ALK, Homo sapiens, UniProt Q9UM73) | cell-free assay | competition with immobilised ligand | 100 |
| Casein kinase I isoform gamma-1 (CSNK1G1, Homo sapiens, UniProt Q9HCP0) | cell-free assay | competition with immobilised ligand | 100 |
| Serine/threonine-protein kinase 17B (STK17B, Homo sapiens, UniProt O94768) | cell-free assay | competition with immobilised ligand | 88 |
| Ephrin type-A receptor 2 (EPHA2, Homo sapiens, UniProt P29317) | cell-free assay | competition with immobilised ligand | 82 |
| Receptor-type tyrosine-protein kinase FLT3 (FLT3, Homo sapiens, UniProt P36888, R834Q) | cell-free assay | competition with immobilised ligand | 90 |
| Protein-tyrosine kinase 2-beta (PTK2B, Homo sapiens, UniProt Q14289) | cell-free assay | competition with immobilised ligand | 83 |
| Cyclin-dependent kinase 9 (CDK9, Homo sapiens, UniProt P50750) | cell-free assay | competition with immobilised ligand | 100 |
| Tyrosine-protein kinase JAK1, JH2 (JAK1, Homo sapiens, UniProt P23458) | cell-free assay | competition with immobilised ligand | 90 |
| Tyrosine-protein kinase ABL1, non-phosphorylated (ABL1, Homo sapiens, UniProt P00519, T315I) | cell-free assay | competition with immobilised ligand | 88 |
| Cyclin-dependent kinase 4 (CDK4, Homo sapiens, UniProt P11802) | cell-free assay | competition with immobilised ligand | 100 |
| LIM domain kinase 1 (LIMK1, Homo sapiens, UniProt P53667) | cell-free assay | competition with immobilised ligand | 94 |
| Casein kinase II subunit alpha (CSNK2A1, Homo sapiens, UniProt P68400) | cell-free assay | competition with immobilised ligand | 63 |
| Mitogen-activated protein kinase kinase kinase kinase 1 (MAP4K1, Homo sapiens, UniProt Q92918) | cell-free assay | competition with immobilised ligand | 81 |
| Phosphatidylinositol 4,5-bisphosphate 3-kinase catalytic subunit alpha isoform (PIK3CA, Homo sapiens, UniProt P42336, H1047L) | cell-free assay | competition with immobilised ligand | 100 |
| Mitogen-activated protein kinase 3 (MAPK3, Homo sapiens, UniProt P27361) | cell-free assay | competition with immobilised ligand | 94 |
| Phosphatidylinositol 4,5-bisphosphate 3-kinase catalytic subunit beta isoform (PIK3CB, Homo sapiens, UniProt P42338) | cell-free assay | competition with immobilised ligand | 86 |
| Serine/threonine-protein kinase B-raf (BRAF, Homo sapiens, UniProt P15056, V600E) | cell-free assay | competition with immobilised ligand | 62 |

Series 6
Species: human
Sample: microsomes or S9
Concentration: 2 µM
Time: 0.5 h
| Compound | remaining compound |
| --- | --- |
| Cc1c(C)n(-c2nccs2)c2ncnc(NCc3cccnc3)c12 | 50.8% |
| NC(CCc1c(Cl)cccc1Cl)c1ccc(Cl)cc1Cl (centres unmarked) | 62.7% |
| O=C(CCc1nnc[nH]1)Nc1cc(C2CCCCCC2)[nH]n1 | 90.5% |

Mixed results
| SMILES | tested on | test | test system | conditions | scale | measurement | result |
| --- | --- | --- | --- | --- | --- | --- | --- |
| CC(C)C[C@@H]1NC(=O)[C@@H](C)NC(=O)[C@@H](CC(C)C)NC(=O)[C@@H](C(C)C)NC(=O)[C@H](C(C)C)NC(=O)[C@H](CC(C)C)NC(=O)[C@@H](CC(C)C)NC1=O |  | PRP chromatography |  | linear fit, 1 mL |  | logD 1,9-decadiene/water | 0.0568 log units |
| Ic1ccc(Nc2nc(NCCN3CCOCC3)nc(N3CCOCC3)n2)cc1 | HEK293T ATF4-firefly luciferase reporter | integrated stress response, measured: ATF4 |  | 10 µM, without ISRIB | reference: DMSO | reporter signal | 176% and 148% and 144% and 166% and 137% and 136% and 161% |
| CC(C)C[C@@H]1NC(=O)[C@H](Cc2cscn2)NC(=O)[C@H](CCC(=O)N2CCCC2)NC(=O)[C@H](CC(C)C)NC(=O)[C@@H](CCC(=O)N2CCCC2)NC(=O)[C@H](CC(C)C)NC(=O)[C@@H](CC(C)C)NC1=O |  | PRP chromatography |  | linear fit, 1 mL |  | logD 1,9-decadiene/water | -4.9 log units |
| O=C(COc1ccccc1P(=O)(O)O)NCC(F)(F)c1cccc(F)c1 | INS-1 |  |  | concentration not given, high glucose |  | ATP/ADP ratio | 5.11 and 5.25 |
| CC(C)n1cnc(-c2ccc(F)cc2)c1-c1ncc(C(=O)Nc2ccc(N3CCN(C)CC3)cc2)[nH]1 |  |  | IPF patients | 60 mg once daily, adverse event incidence |  | bile acids increased | 0% |
| CN(C(=O)c1ccn2ncc(-c3ccc(C(N)=O)cc3)c2c1)c1ccc(C#N)cn1 |  |  | C57BL/6 IFN-γ knockout mouse, female, plasma | oral, 10 mg/kg, 4 h |  | plasma concentration | 487 nM |

Some of these lines once more (series 5):
| target | read-out | technique | remaining binding [%] |
| --- | --- | --- | --- |
| Ribosomal protein S6 kinase alpha-5, C-terminal kinase domain (RPS6KA5, Homo sapiens, UniProt O75582) | cell-free assay | competition with immobilised ligand | 87 |
| Epidermal growth factor receptor (EGFR, Homo sapiens, UniProt P00533, G719C) | cell-free assay | competition with immobilised ligand | 83 |
| Tyrosine-protein kinase ABL1, non-phosphorylated (ABL1, Homo sapiens, UniProt P00519, T315I) | cell-free assay | competition with immobilised ligand | 88 |
| Mitogen-activated protein kinase 4 (MAPK4, Homo sapiens, UniProt P31152) | cell-free assay | competition with immobilised ligand | 100 |
| Casein kinase I isoform gamma-1 (CSNK1G1, Homo sapiens, UniProt Q9HCP0) | cell-free assay | competition with immobilised ligand | 100 |
| Tyrosine-protein kinase JAK1, JH2 (JAK1, Homo sapiens, UniProt P23458) | cell-free assay | competition with immobilised ligand | 90 |
| Protein-tyrosine kinase 2-beta (PTK2B, Homo sapiens, UniProt Q14289) | cell-free assay | competition with immobilised ligand | 83 |
| LIM domain kinase 1 (LIMK1, Homo sapiens, UniProt P53667) | cell-free assay | competition with immobilised ligand | 94 |
